Measurements gathered from unrelated publications.
Lines come from different studies, so protocols differ.
Target: Muscarinic acetylcholine receptor M1 (CHRM1, Homo sapiens, UniProt P11229)
One construct used (P11229 1-460): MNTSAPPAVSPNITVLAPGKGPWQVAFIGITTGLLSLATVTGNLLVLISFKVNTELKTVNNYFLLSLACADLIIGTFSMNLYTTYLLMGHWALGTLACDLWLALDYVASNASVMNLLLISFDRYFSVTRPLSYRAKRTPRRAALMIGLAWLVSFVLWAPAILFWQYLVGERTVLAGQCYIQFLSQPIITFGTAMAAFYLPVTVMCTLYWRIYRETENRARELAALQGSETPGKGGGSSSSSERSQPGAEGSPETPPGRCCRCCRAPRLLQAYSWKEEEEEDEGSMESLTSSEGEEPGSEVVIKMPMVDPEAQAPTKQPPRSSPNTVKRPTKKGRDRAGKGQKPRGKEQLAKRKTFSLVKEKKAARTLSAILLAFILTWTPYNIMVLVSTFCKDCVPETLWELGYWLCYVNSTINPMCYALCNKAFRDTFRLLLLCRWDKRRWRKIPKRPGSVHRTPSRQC

Structure (SMILES) | test | conditions | scale | quantity | value
CCCO[C@H]1[C@H](O)[C@@H](N)[C@@H](O[C@H]2[C@H](O[C@@H]3O[C@H](CO)[C@@H](O[C@H]4O[C@@H](CN)[C@@H](O)[C@H](O)[C@H]4N)[C@H]3O)[C@@H](O)[C@H](N)C[C@@H]2N)O[C@@H]1CO | radioligand binding | 10 µM, 1% DMSO |  | specific binding | 6%
C/C(=N\OCCCN1CCCCC1)c1ccc(C(F)(F)F)cc1 | agonist, IP-One | 10 µM |  | activation | 0.38%
CN[C@@H]1[C@H](O)[C@H](NC)[C@H]2O[C@]3(O)[C@H](O[C@@H]2[C@H]1O)O[C@H](C)C[C@H]3NC(=O)Cc1cc(Cl)ccn1 | ligand displacement, radioligand | 10 µM |  | inhibition | 0%
CCc1nnc(-c2c(OC)cc(-c3cnc4cc(-c5cnn(C)c5)ccn34)cc2OC)o1 | antagonist radioligand, radioligand binding | 10 µM, SafetyScreen44 M1 mean | lower = stronger displacement | remaining binding | 96.2%
Cc1cc(-c2ccc3ccccc3c2)nnc1NCCN1CCN(C)CC1 | antagonist | concentration not given |  | antagonist activity | negative
N[C@H](C(=O)N1CCCC1)C1CCN(c2nccc3c(-c4ncc(Cl)cc4Cl)cccc23)CC1 | functional response, agonist | 10 µM |  | response | 4%
Cc1cc(Nc2nc(C[C@@]3(C(=O)O)CCN(Cc4cccc(Cl)c4F)[C@H](C)C3)cc(C)c2F)[nH]n1 | agonist | 10 µM |  | activation | 0.01%
Cc1sc2c(c1C)C(c1ccc(Cl)cc1)=NC(CC(=O)OC(C)(C)C)c1nnc(C)n1-2 (centres unmarked) | specific binding | 1 µM |  | inhibition | -14%

Repeated from above:
Structure (SMILES) | test | conditions | scale | quantity | value
CN[C@@H]1[C@H](O)[C@H](NC)[C@H]2O[C@]3(O)[C@H](O[C@@H]2[C@H]1O)O[C@H](C)C[C@H]3NC(=O)Cc1cc(Cl)ccn1 | ligand displacement, radioligand | 10 µM |  | inhibition | 0%
